Experimental data pooled from the literature.
Compare with care: the assays were run in different laboratories. ± gives the spread as reported.
PTPN1: Tyrosine-protein phosphatase non-receptor type 1 (PTPN1, Homo sapiens, UniProt P18031)
Receptor-type tyrosine-protein phosphatase alpha residues 224-802: Receptor-type tyrosine-protein phosphatase alpha, residues 224-802 (Homo sapiens, UniProt P18433)
FURIN: Furin (FURIN, Homo sapiens, UniProt P09958)

By UniProt entry, the sequences of proteins in these tests, tags left out. Residues count along the entry.
UniProt P18031, 1-321 limits assumed: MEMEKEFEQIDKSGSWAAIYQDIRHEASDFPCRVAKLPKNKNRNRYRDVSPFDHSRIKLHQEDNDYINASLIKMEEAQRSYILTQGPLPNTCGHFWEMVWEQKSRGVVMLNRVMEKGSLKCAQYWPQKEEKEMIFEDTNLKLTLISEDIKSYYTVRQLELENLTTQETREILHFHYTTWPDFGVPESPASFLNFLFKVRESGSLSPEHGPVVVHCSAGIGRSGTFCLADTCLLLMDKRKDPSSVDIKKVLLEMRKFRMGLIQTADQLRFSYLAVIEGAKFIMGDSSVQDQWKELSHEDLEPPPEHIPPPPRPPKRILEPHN
UniProt P18031, whole entry: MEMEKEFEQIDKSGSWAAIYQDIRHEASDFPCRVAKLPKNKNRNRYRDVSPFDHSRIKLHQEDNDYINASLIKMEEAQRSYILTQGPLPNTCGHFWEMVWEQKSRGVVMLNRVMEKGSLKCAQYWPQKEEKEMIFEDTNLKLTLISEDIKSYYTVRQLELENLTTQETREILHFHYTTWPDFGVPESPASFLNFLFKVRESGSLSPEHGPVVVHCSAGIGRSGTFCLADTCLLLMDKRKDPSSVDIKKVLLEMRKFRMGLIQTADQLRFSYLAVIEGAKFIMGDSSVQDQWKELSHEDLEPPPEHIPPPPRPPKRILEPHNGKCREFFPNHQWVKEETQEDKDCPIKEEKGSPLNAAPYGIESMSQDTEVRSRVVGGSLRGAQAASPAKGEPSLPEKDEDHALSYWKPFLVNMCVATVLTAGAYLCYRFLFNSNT
UniProt P18433, 224-802 limits assumed: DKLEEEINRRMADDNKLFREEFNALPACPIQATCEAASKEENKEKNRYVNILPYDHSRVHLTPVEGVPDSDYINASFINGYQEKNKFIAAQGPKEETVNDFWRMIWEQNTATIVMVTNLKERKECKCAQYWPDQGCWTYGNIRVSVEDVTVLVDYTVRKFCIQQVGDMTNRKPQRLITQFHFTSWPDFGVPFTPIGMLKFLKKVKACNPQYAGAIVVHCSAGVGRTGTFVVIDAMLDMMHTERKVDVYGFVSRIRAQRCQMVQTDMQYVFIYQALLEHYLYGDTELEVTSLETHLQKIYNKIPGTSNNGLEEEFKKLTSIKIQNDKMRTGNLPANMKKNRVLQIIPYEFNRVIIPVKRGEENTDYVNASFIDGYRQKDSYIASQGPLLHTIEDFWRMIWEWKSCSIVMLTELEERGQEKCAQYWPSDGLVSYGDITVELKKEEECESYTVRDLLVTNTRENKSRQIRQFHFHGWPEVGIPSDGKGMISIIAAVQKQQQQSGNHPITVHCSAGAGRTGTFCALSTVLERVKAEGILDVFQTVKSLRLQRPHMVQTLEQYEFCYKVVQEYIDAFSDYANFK
UniProt P09958, whole entry, looked up: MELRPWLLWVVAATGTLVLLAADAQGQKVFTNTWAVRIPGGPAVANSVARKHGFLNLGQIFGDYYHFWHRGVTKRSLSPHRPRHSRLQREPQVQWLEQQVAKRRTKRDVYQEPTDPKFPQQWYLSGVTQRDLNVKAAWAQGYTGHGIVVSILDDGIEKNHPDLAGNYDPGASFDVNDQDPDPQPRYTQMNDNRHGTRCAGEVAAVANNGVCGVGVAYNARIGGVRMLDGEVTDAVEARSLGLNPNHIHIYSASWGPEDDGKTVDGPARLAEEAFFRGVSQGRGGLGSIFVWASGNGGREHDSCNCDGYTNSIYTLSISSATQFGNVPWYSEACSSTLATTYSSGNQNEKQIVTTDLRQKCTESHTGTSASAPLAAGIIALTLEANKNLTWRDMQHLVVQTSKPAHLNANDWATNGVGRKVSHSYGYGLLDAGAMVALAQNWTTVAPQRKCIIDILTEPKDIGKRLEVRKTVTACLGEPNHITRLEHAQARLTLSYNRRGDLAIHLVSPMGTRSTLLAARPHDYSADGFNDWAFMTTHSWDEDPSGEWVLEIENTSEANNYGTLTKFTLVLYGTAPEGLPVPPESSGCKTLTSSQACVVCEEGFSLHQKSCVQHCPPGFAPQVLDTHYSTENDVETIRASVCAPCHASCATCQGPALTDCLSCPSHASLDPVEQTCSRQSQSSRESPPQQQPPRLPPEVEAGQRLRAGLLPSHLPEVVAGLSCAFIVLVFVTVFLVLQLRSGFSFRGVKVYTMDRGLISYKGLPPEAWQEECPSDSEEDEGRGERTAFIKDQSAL
UniProt P48025, whole entry: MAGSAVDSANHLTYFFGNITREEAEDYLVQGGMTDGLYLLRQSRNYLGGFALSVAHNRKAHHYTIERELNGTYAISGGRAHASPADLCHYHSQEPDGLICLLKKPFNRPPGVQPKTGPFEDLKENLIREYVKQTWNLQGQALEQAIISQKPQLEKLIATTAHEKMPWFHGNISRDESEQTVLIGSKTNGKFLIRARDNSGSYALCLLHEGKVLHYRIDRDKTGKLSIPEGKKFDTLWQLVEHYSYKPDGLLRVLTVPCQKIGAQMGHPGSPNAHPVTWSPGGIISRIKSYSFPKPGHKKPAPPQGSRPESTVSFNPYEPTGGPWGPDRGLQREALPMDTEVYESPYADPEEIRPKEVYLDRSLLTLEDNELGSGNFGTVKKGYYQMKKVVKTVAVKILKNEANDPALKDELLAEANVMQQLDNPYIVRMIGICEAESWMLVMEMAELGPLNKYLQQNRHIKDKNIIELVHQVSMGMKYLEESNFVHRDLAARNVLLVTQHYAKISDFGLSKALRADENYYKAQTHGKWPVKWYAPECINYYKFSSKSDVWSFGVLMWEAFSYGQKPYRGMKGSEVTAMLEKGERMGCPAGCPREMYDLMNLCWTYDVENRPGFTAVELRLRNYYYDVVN
UniProt P17706, whole entry: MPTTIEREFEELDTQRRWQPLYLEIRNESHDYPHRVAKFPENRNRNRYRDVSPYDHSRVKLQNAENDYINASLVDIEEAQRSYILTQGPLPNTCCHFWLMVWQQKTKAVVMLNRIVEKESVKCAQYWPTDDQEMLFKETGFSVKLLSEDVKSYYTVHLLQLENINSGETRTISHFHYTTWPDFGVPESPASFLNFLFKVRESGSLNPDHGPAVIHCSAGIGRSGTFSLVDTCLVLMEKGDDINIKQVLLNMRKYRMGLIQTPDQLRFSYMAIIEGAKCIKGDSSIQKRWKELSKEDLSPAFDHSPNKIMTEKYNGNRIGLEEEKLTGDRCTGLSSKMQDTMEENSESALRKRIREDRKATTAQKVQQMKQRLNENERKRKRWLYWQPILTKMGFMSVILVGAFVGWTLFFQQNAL

| SMILES | target | assay | conditions | kcat [s⁻¹] |
| --- | --- | --- | --- | --- |
| CC(C)C[C@H](NC(=O)[C@H](CC(N)=O)NC(=O)[C@@H](N)CC(=O)O)C(=O)N[C@@H](Cc1ccc(O)cc1)C(=O)N[C@@H](Cc1ccc(OP(=O)(O)O)cc1)C(=O)N[C@@H](Cc1c[nH]c2ccccc12)C(=O)N[C@@H](CC(=O)O)C(N)=O | PTPN1 | enzyme activity, substrate | pH 7.4 | 32 ± 1 |
| CC[C@H](C)[C@H](NC(=O)[C@H](CCCNC(=N)N)NC(=O)[C@H](CCCNC(=N)N)NC(C)=O)C(=O)N[C@@H](CO)C(=O)N[C@H](C(=O)N[C@@H](Cc1ccc(OP(=O)(O)O)cc1)C(=O)N[C@@H](C)C(=O)N[C@@H](C)C(N)=O)[C@@H](C)O | Receptor-type tyrosine-protein phosphatase alpha residues 224-802 | phosphatase activity, substrate | pH 7.4, with: phosphotyrosine peptide | 49 ± 3 |
| C[C@H](NC(=O)[C@H](CCC(N)=O)NC(=O)[C@H](CCCNC(=N)N)NC(=O)[C@H](CCCCN)NC(=O)[C@H](CCC(=O)O)NC(=O)[C@H](CCCNC(=N)N)NC(=O)[C@H](CCCCN)NC(=O)[C@H](Cc1c[nH]cn1)NC(=O)c1ccccc1N)C(=O)N[C@@H](CCCCN)C(=O)N[C@@H](Cc1c[nH]cn1)C(=O)N[C@@H](CCC(N)=O)C(=O)NCCNc1ccc([N+](=O)[O-])cc1[N+](=O)[O-] | FURIN | substrate | pH 7 | 3.6 |
| NCC(=O)NCC(=O)N[C@@H](CC(=O)O)C(=O)N[C@@H](CCC(=O)O)C(=O)N[C@@H](CCC(=O)O)C(=O)N[C@@H](CC(=O)O)C(=O)N[C@@H](Cc1ccc(O)cc1)C(=O)N[C@@H](CCC(=O)O)C(=O)N[C@@H](CCC(=O)O)C(=O)N1CCC[C@H]1C(=O)N[C@@H](CC(=O)O)C(=O)N[C@@H](CCC(=O)O)C(=O)N1CCC[C@H]1C(=O)NCC(=O)NCC(=O)N[C@@H](CCCCNC(=O)CCCC[C@@H]1SC[C@@H]2NC(=O)N[C@@H]21)C(=O)NCC(=O)NCC(=O)O | Tyrosine-protein kinase SYK (Mus musculus, UniProt P48025) | kinase activity, ELISA fluorescence | pH 7.2, MnCl2 5 mM, with: ATP 500 µM | 3.6 |
| C[C@H](NC(=O)[C@H](C)NC(=O)[C@H](Cc1ccc(OP(=O)(O)O)cc1)NC(=O)[C@H](Cc1ccccc1)NC(=O)[C@H](CCC(=O)O)NC(=O)[C@H](Cc1cc(F)c(O)c(F)c1)NC(=O)[C@H](CCC(=O)O)NC(=O)[C@@H](N)CCCNC(=N)N)C(N)=O | PTPN1 | enzyme activity, substrate | pH 7.4 | 44 ± 2 |
| CC(=O)N[C@@H](CCC(=O)O)C(=O)N[C@@H](CCC(=O)O)C(=O)N[C@@H](CC(=O)O)C(=O)N[C@@H](CC(N)=O)C(=O)N[C@@H](C)C(=O)N[C@@H](Cc1c[nH]c2ccccc12)C(=O)N[C@@H](Cc1ccc(OP(=O)(O)O)cc1)C(=O)N[C@@H](C)C(=O)N[C@@H](C)C(N)=O | PTPN1 | substrate | pH 7.4, catalytic domain | 27 ± 1 |
| CC[C@H](C)[C@H](NC(=O)[C@H](CO)NC(=O)[C@H](CCCNC(=N)N)NC(=O)[C@H](CCCNC(=N)N)NC(=O)[C@H](Cc1ccccc1)NC(=O)[C@H](CCCNC(=N)N)NC(=O)[C@H](CCCNC(=N)N)NC(=O)[C@@H](NC(=O)c1ccccc1N)[C@@H](C)O)C(=O)N[C@H](C(=O)N[C@@H](CCC(=O)O)C(=O)N[C@@H](CCC(N)=O)C(=O)NCCNc1ccc([N+](=O)[O-])cc1[N+](=O)[O-])[C@@H](C)O | FURIN | substrate | pH 7 | 19.5 |
| CC(=O)N[C@@H](Cc1ccc(O)cc1)C(=O)N[C@@H](CC(=O)O)C(=O)N[C@@H](CCC(=O)O)C(=O)N[C@@H](CC(=O)O)C(=O)N[C@@H](Cc1ccccc1)C(=O)N[C@@H](Cc1ccc(OP(=O)(O)O)cc1)C(=O)N[C@@H](CC(=O)O)C(=O)N[C@@H](Cc1ccc(O)cc1)C(=O)N[C@@H](CCC(=O)O)C(=O)N[C@@H](Cc1ccccc1)C(N)=O | PTPN1 | substrate | pH 7.4, catalytic domain | 21 ± 0.5 |
| CC[C@H](C)[C@H](NC(=O)[C@H](CCCNC(=N)N)NC(=O)[C@H](CCCCN)NC(=O)[C@H](CCCNC(=N)N)NC(=O)[C@H](C)NC(C)=O)C(=O)N[C@@H](Cc1ccc(OP(=O)(O)O)cc1)C(=O)N[C@@H](C)C(=O)N[C@@H](C)C(N)=O | Receptor-type tyrosine-protein phosphatase alpha residues 224-802 | phosphatase activity, substrate | pH 7.4, with: phosphotyrosine peptide | 39 ± 1 |
| C[C@@H](O)[C@H](NC(=O)[C@H](CO)NC(=O)[C@H](CCCNC(=N)N)NC(=O)[C@H](CCCCN)NC(=O)[C@@H](NC(=O)[C@H](CCCNC(=N)N)NC(=O)[C@H](CC(N)=O)NC(=O)[C@H](Cc1c[nH]cn1)NC(=O)c1ccccc1N)[C@@H](C)O)C(=O)N[C@@H](CC(=O)O)C(=O)NCC(=O)N[C@@H](CCC(N)=O)C(=O)NCCNc1ccc([N+](=O)[O-])cc1[N+](=O)[O-] | FURIN | substrate | pH 7 | 7.6 |
| CCCC[C@H](NC(=O)[C@H](Cc1ccccc1)NC(C)=O)C(=O)NCC(=O)N[C@@H](C)C(=O)N[C@@H](Cc1cc(=O)oc2cc(OP(=O)(O)O)ccc12)C(=O)N[C@@H](CCC(N)=O)C(=O)N[C@@H](CC(C)C)C(=O)N[C@@H](CCC(=O)O)C(=O)N[C@@H](CCC(=O)O)C(N)=O | PTPN2 (Homo sapiens, UniProt P17706) | peptide hydrolysis, substrate | – | 160 ± 30 |
| CC(=O)N[C@@H](C)C(=O)N[C@@H](C)C(=O)N[C@@H](Cc1ccc(OP(=O)(O)O)cc1)C(=O)N[C@@H](C)C(=O)N[C@@H](C)C(=O)N[C@@H](C)C(=O)N[C@@H](CC(=O)O)C(=O)N[C@@H](CC(=O)O)C(N)=O | PTPN1 | substrate | pH 7.4, catalytic domain | 29 ± 1 |
| CC(=O)N[C@@H](C)C(=O)N[C@@H](C)C(=O)N[C@@H](C)C(=O)N[C@@H](C)C(=O)N[C@@H](C)C(=O)N[C@@H](Cc1ccc(OP(=O)(O)O)cc1)C(=O)N[C@@H](CCCNC(=N)N)C(=O)N[C@@H](Cc1c[nH]cn1)C(=O)N[C@@H](CCCNC(=N)N)C(=O)N[C@@H](CCCNC(=N)N)C(N)=O | Receptor-type tyrosine-protein phosphatase alpha residues 224-802 | phosphatase activity, substrate | pH 7.4, with: phosphotyrosine peptide | 30 ± 2 |
| CC[C@H](C)[C@H](NC(=O)CNC(=O)[C@H](CCCNC(=N)N)NC(=O)[C@@H]1CCCN1C(=O)[C@H](CC(=O)O)NC(C)=O)C(=O)N[C@@H](Cc1ccc(OP(=O)(O)O)cc1)C(=O)N[C@@H](CC(=O)O)C(=O)N[C@@H](CCC(N)=O)C(=O)N[C@H](C(=O)N[C@@H](C)C(=O)NCC(N)=O)C(C)C | PTPN1 | substrate | pH 7.4, catalytic domain | 27 ± 1 |
| CC(C)C[C@H](NC(=O)[C@H](CCC(=O)O)NC(=O)[C@H](CCCNC(=N)N)NC(=O)[C@H](CCCCN)NC(=O)[C@H](CCCNC(=N)N)NC(=O)[C@H](CCCNC(=N)N)NC(=O)[C@H](CCCCN)NC(=O)[C@H](CCCNC(=N)N)NC(=O)c1ccccc1N)C(=O)N[C@@H](CCC(=O)O)C(=O)N[C@H](C(=O)N[C@@H](CCC(N)=O)C(=O)NCCNc1ccc([N+](=O)[O-])cc1[N+](=O)[O-])[C@@H](C)O | FURIN | substrate | pH 7 | 3 |
| CCCC[C@H](NC(=O)[C@H](CCC(N)=O)NC(=O)[C@@H](NC(=O)[C@H](CCC(=O)O)NC(=O)[C@H](CC(=O)O)NC(=O)[C@H](Cc1ccc(OP(=O)(O)O)cc1)NC(=O)[C@H](CC(C)C)NC(=O)[C@@H]1CCCN1C(=O)CNC(=O)[C@H](Cc1c[nH]c2ccccc12)NC(=O)[C@H](C)NC(C)=O)C(C)C)C(N)=O | PTPN1 | substrate | pH 7.4, catalytic domain | 31 ± 1 |
| CC[C@H](C)[C@H](NC(=O)[C@H](CCCNC(=N)N)NC(=O)[C@@H](NC(=O)[C@H](Cc1c[nH]cn1)NC(=O)c1ccccc1N)C(C)C)C(=O)N[C@@H](CO)C(=O)N[C@@H](CCCNC(=N)N)C(=O)N[C@@H](CO)C(=O)N[C@@H](CC(C)C)C(=O)N1CCC[C@H]1C(=O)N[C@@H](CCC(N)=O)C(=O)N[C@@H](CCC(N)=O)C(=O)NCCNc1ccc([N+](=O)[O-])cc1[N+](=O)[O-] | FURIN | substrate | pH 7 | 3.6 |

For quick reference, copied from above:
| SMILES | target | assay | conditions | kcat [s⁻¹] |
| --- | --- | --- | --- | --- |
| CC[C@H](C)[C@H](NC(=O)CNC(=O)[C@H](CCCNC(=N)N)NC(=O)[C@@H]1CCCN1C(=O)[C@H](CC(=O)O)NC(C)=O)C(=O)N[C@@H](Cc1ccc(OP(=O)(O)O)cc1)C(=O)N[C@@H](CC(=O)O)C(=O)N[C@@H](CCC(N)=O)C(=O)N[C@H](C(=O)N[C@@H](C)C(=O)NCC(N)=O)C(C)C | PTPN1 | substrate | pH 7.4, catalytic domain | 27 ± 1 |
| CC(C)C[C@H](NC(=O)[C@H](CCC(=O)O)NC(=O)[C@H](CCCNC(=N)N)NC(=O)[C@H](CCCCN)NC(=O)[C@H](CCCNC(=N)N)NC(=O)[C@H](CCCNC(=N)N)NC(=O)[C@H](CCCCN)NC(=O)[C@H](CCCNC(=N)N)NC(=O)c1ccccc1N)C(=O)N[C@@H](CCC(=O)O)C(=O)N[C@H](C(=O)N[C@@H](CCC(N)=O)C(=O)NCCNc1ccc([N+](=O)[O-])cc1[N+](=O)[O-])[C@@H](C)O | FURIN | substrate | pH 7 | 3 |
